# Published values from different studies.
# Parts stem from different laboratories: compare values within a part only.

# Sample 1 — technique: RNA Bind-n-Seq; molecule type: RNA; medium: in vitro; concentration: 365 nM; relative to: no-protein control; direction: higher = stronger binding
# Target: RNA binding protein fox-1 homolog 2, RRM domain, GST-SBP tag (RBFOX2, Homo sapiens, UniProt O43251-10, residues 100-194)
# Notes: natural RNA segment, single round, ends assumed
# Constant ends, left off below: GGGAGUUCUACAGUCCGACGAUC … UGGAAUUCUCGGGUGCCAA
# Construct (chain): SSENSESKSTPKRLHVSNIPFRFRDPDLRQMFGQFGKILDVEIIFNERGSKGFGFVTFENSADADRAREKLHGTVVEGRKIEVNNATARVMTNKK
Sequence,RBNS enrichment (R)
CUGCCAUUCACUCACUGCAGCAUAUUCAAGAAUAAAGCAAUAUCGUUUACUACAUUUUUUAUUGAAGGUCAGCCAUGCUUUCUGUAUUAUAUUGCAUAUGAAAUUGUUUA,0.365
GAAAAAGAACCAAUAAAUCACACAAUCUUUAUGUGCUUUCUAUAUGUAUUUCUUAGUAGUGAUACCAUUGAUCCUCUUACUUUUUUUACUCCAUUAAUACUAAUAAUUAU,0.423
UGUAGUUUUUAUUAUGUAGUGACUUUUCAGAAUAAAAGCAGCUGAUGUGACUGACUGCAUCCGACUCGAGGCUGCCUGCUUACCAGGUGCAACUAUCUGCCAAAUGGUGG,0.476
UGGGGUGCACCUGUCCAAUAGGCGUAGCUAUCCGGACAGAGCACGUUUGCAGAAGGGGGUCUCUUCUUCCAGGUAGCUGAAAGGGGAAGACCUGACGUACUCUGGUUAGG,0.583
CAUCACCUGGCACGCAGGCGCCUUACAUUCUACGGUAGAACGUGGGGUACUGUGUGUGCACAUAGACACACUUACGUGGAAUUACAGUUGUGGGUUUAUCCAAGAUGAGG,0.253
CCACAGACACUCAACGCCAGCCUGUAAAAGCAACCGAGAAGUAGGCUGUACCCUGCAAUGCCAUAGGGGUGGAGCUGCCCAAGACCAUGGGAACCCACCUCCUGCAUCAG,0.982
AAUGUGUGGUGCUUUGGUGAGCAAACCCUCAGCAGUCCUGACCUUCGGGUGACCAGGUGCUUGUGACCUACAAGUCAGAGUCCUCUCUCACAGUCGGCCACUGGAUUUCC,0.164
AUUUUUACUUCAUACUUCCAUUCACAAAUUGUAGCUAUCCAUUAUUAAUUGCUAGUACUUGUUUUUUAAACAACACUUUGUAGCAUGGGAACAACCCUCCCCCUUUCCAU,0.666

# Sample 2 — technique: protein binding microarray; molecule type: double-stranded DNA, one strand shown; medium: in vitro; concentration: not given; relative to: not given; direction: higher = stronger binding
# Target: Histone acetyltransferase KAT6A, winged helix 1, GST fusion (KAT6A, Homo sapiens, UniProt Q92794, residues 1-85)
# Notes: 8-mer, flanks averaged, mean of 2 arrays, mostly near background
# Target sequence (chain): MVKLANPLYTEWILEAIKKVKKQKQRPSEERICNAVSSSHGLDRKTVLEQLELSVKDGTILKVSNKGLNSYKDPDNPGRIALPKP
Sequence,E-score
ATAACTCC,-0.0931
CAAGTTTC,0.00183
GGTTCATA,-0.0128
CTTACACC,-0.147
CAGCAGAA,-0.027
ATTGGATA,-0.129
CACAGACA,-0.239
ATAAGCAT,-0.165
AAGATTCA,-0.154
CCGCGTGC,0.369
TCAAGAAA,-0.223
CTGGCGAA,-0.13
AGACACAG,-0.208
GATCGGAA,0.0599
AAGACGAG,-0.122
GGCCTGCA,-0.0606
CAAGACGA,-0.0831
CGACTACA,-0.172
CATCGTCG,0.179
AGTCTTGG,-0.117
CATAGTTC,-0.0696
TGGCGCCA,-0.0327
TAAAGATA,-0.0993
CTGGAGAA,-0.187

# Sample 3 — target: Sox-I, HMG box (Salpingoeca helianthica); technique: Spec-seq; molecule type: double-stranded DNA, one strand shown; medium: in vitro; concentration: not given; notes: whole probe, mean of replicates; relative to: not given; direction: lower = stronger binding; constant ends, left off below: GAGTCGTCTCGTCAGCAC … CCGTAGAGCACTCAGGTC
# Residues (chain): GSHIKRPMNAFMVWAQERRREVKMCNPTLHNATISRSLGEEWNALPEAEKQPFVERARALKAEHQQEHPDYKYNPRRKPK
Sequence,relative binding energy [ln ratio]
CATCGTT,0.619
CTTTGTT,-2.8
GCGTGTT,0.569
AAAGGTT,-1.91
CATTCAC,0.078
GTAGGTT,0.992
CATCTCA,0.72
CATTCCC,0.986
CATATGG,0.795
TGTAGTT,0.17
CATGGTC,0.703
CATCATT,0.149
ATCTGTT,-1.01

# Sample 4 — technique: protein-binding microarray; molecule type: double-stranded DNA, one strand shown; medium: in vitro; concentration: 2540 nM top; notes: 60-bp whole probe; added: salmon DNA 0.4 mg/ml; relative to: random background probes; direction: higher = stronger binding; constant ends, left off below: GCCTAGCAC … GTCTTGATTCGCTTGACGCTGCTG
# Target: Interferon regulatory factor 3, full length, phosphomimetic (IRF3, Homo sapiens, UniProt Q14653, residues 1-427, S386D/S396D/S398D/S402D/T404D/S405D)
# Target sequence (chain): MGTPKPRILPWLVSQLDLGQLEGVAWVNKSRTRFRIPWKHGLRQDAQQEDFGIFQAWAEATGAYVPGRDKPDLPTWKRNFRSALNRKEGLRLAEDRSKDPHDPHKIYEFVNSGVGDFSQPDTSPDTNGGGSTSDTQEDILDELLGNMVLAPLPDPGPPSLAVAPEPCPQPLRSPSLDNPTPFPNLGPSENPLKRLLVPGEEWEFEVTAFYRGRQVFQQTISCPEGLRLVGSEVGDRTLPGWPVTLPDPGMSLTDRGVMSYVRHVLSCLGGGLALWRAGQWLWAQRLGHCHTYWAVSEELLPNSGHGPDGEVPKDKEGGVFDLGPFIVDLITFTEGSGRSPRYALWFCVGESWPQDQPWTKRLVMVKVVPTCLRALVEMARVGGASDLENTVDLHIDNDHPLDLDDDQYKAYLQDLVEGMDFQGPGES
Sequence,fitted relative affinity
TTTGAACTGAGTTTCGATTAGTGCTAG,2.38 z-score
GACGGTTTCAACACTGGGGACGTGCTA,1.33 z-score
TCATTTTTTGGAATGTCACTGTGCTAG,1.18 z-score
TTAGGTATCGGGACTGGGCTAGTGCTA,1.04 z-score
TTCACTCTCTGCTTGTATCTGTGCTAG,0.45 z-score
TTAGATTTCGGGTATCGATTCGTGCTA,1.88 z-score
TTAGAATTCGGGTTTCGATTAGTGCTA,2.29 z-score
GACGCTTTCGACTATCGGGACGTGCTA,0.821 z-score
GTTAGAATGTCCTTTCTCCATGTGCTA,3.85 z-score
GACGAACTGGGGTTTTGAGACGTGCTA,-0.59 z-score
CTTTTTTTGGTAATAGTGAAGTGCTAG,2.77 z-score
TCACCTTTCAGTTTTCCACTGTGCTAG,3.58 z-score
TTAGAATTCAGACTGGATTAGTGCTAG,-0.0662 z-score
GACGGTATCGGTTTGGGGACGTGCTAG,4.71 z-score
GACGATTTCGGGTTTCGAGCCGTGCTA,2.5 z-score
TCAACTTTCTACGTCTGACTGTGCTAG,0.779 z-score

# Excerpt of the above (sample 1):
Sequence,RBNS enrichment (R)
UGGGGUGCACCUGUCCAAUAGGCGUAGCUAUCCGGACAGAGCACGUUUGCAGAAGGGGGUCUCUUCUUCCAGGUAGCUGAAAGGGGAAGACCUGACGUACUCUGGUUAGG,0.583
AAUGUGUGGUGCUUUGGUGAGCAAACCCUCAGCAGUCCUGACCUUCGGGUGACCAGGUGCUUGUGACCUACAAGUCAGAGUCCUCUCUCACAGUCGGCCACUGGAUUUCC,0.164
CUGCCAUUCACUCACUGCAGCAUAUUCAAGAAUAAAGCAAUAUCGUUUACUACAUUUUUUAUUGAAGGUCAGCCAUGCUUUCUGUAUUAUAUUGCAUAUGAAAUUGUUUA,0.365
UGUAGUUUUUAUUAUGUAGUGACUUUUCAGAAUAAAAGCAGCUGAUGUGACUGACUGCAUCCGACUCGAGGCUGCCUGCUUACCAGGUGCAACUAUCUGCCAAAUGGUGG,0.476
